Published values from different studies.
Parts stem from different laboratories: compare values within a part only.

Block 1
Target: Histone acetyltransferase KAT6A, both winged helices, GST fusion (KAT6A, Homo sapiens, UniProt Q92794, residues 1-181)
Technique: protein binding microarray
Molecule type: double-stranded DNA, one strand shown
Medium: in vitro
Tested at: not given
Setting: 8-mer, flanks averaged, mean of 2 arrays, mostly near background
Relative to: not given
Direction: higher = stronger binding
Construct (chain): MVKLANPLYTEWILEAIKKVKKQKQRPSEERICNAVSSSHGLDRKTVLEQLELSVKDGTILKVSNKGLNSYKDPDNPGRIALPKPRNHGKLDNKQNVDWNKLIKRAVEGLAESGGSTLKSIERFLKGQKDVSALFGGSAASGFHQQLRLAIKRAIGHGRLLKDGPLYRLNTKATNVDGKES
For `CTGGCAGA`, the E-score was -0.192.
`AGAGACAA` gave an E-score of -0.182.
`AGTTAAGG` gave an E-score of -0.11.
`ACCTGTCT` has an E-score of -0.167.

Block 2
Target: Protein max, full length (MAX, Homo sapiens, UniProt P61244-2, residues 1-151)
Technique: protein-binding microarray
Molecule type: double-stranded DNA, one strand shown
Medium: in vitro
Tested at: not given
Setting: k-mer, scored over probes, only values ≥0.25
Direction: higher = stronger binding
For `GCATGGTA`, the E-score was 0.421.
With `ACATGTCA` the E-score was 0.288.
With `CATGTTGA` the E-score was 0.34.
`GCATGAGC` has an E-score of 0.324.

Block 3
Target: RNA binding protein fox-1 homolog 2, RRM domain, GST-SBP tag (RBFOX2, Homo sapiens, UniProt O43251-10, residues 100-194)
Technique: RNA Bind-n-Seq
Molecule type: RNA
Medium: in vitro
Tested at: 365 nM
Setting: natural RNA segment, single round, ends assumed
Relative to: no-protein control
Direction: higher = stronger binding
Target sequence (chain): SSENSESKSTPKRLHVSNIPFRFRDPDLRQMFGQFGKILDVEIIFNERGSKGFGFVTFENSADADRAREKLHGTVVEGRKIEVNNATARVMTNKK
For `GGGAGUUCUACAGUCCGACGAUCCCUCAGCUGUUCCUUGCUGGUAUACCUCAGAAGUGGAAUGUCAGAGUGGGCUACUAGAGACCUCUGACCCCAGCAGCACUGGCUUGCCCUCAUAUGUGGGGUGUAGUCACUGGAAUUCUCGGGUGCCAA`, “RBNS enrichment (R)” read 0.328.
`GGGAGUUCUACAGUCCGACGAUCUGAUUGGGCGCAACGAACUGCAUUUCUUUGGACUUCUGAAUCCAUGUUUGUGCUUUCUCUGGCCCGUGAACACCUCGGCGAUUCUGUUAGGGAUGGGAUGAGUGGGAGGAUGGAAUUCUCGGGUGCCAA` — result for “RBNS enrichment (R)”: 0.501.
`GGGAGUUCUACAGUCCGACGAUCGCCACAGGCACAAGUGGGAAGUGAUGCAGCUCAAAGGUUUGGAUGAGAUGGGAUGUGCAGCGAUUGAGUCGUAGCUGGAGCGAAGGAUGUGCUAAGUUAGGGAUUGGAGGUGGAAUUCUCGGGUGCCAA`: “RBNS enrichment (R)” 13.
Under “RBNS enrichment (R)”, `GGGAGUUCUACAGUCCGACGAUCCUGGCACCUGGUUUCUGUUCUGUUGAUCCCACUUCACUGUGAGGGGAAGGCCUUUUCACGGGAACUCUCCAAAUAUUAUUCAAGUGCCUCUUGUUGCAGAGAUUUCCUCCUGGAAUUCUCGGGUGCCAA` is recorded as 0.485.

Further values, each from its own experiment
The fold induction of `PhoQ, residues 284 288 289 292 302 303 AQGLTV` is reported as 8.67 (PhoP, residues 12 14 15 18 19 TTLRV (Escherichia coli, UniProt P23836); Sort-seq, measured: YFP reporter; E. coli; PhoQ-PhoP variant library, added: 10 µM Mg2+; relative to: high Mg2+ state, higher = stronger signaling).

Some of these lines once more (block 3):
Under “RBNS enrichment (R)”, `GGGAGUUCUACAGUCCGACGAUCCUGGCACCUGGUUUCUGUUCUGUUGAUCCCACUUCACUGUGAGGGGAAGGCCUUUUCACGGGAACUCUCCAAAUAUUAUUCAAGUGCCUCUUGUUGCAGAGAUUUCCUCCUGGAAUUCUCGGGUGCCAA` is recorded as 0.485.
